Published values gathered from unrelated publications.
Numbered parts are unrelated; each lists some results of a single study. Changes are numbered by the printed parent chain.

Sample 1
Target: CCNB1, cyclin fold, Cln2 fusion (human)
Technique: yeast growth competition, sequencing
Matrix: yeast
Notes: weak parent motif
Baseline: not given
Reading: higher = stronger binding
Parent: SLBP docking peptide (human); ARYKRKLLINDFG
`ARYKRKELINDFG [L7E]`: “normalised enrichment score” 0.507.
`ARCKRKLLINDFG [Y3C]`: “normalised enrichment score” 0.396.
Under “normalised enrichment score”, `ARYKRKLLINDSG [F12S]` is recorded as 0.485.
`ARYKRKLLINDFF [G13F]`: “normalised enrichment score” 1.08.
`DRYKRKLLINDFG [A1D]`: “normalised enrichment score” 0.472.
`ARYKRKLLINDFC [G13C]` — result for “normalised enrichment score”: 0.65.
Under “normalised enrichment score”, `ARYKRKCLINDFG [L7C]` is recorded as 1.08.
`HRYKRKLLINDFG [A1H]` — result for “normalised enrichment score”: 1.02.
For `ARYVRKLLINDFG [K4V]`, “normalised enrichment score” read 0.788.
For `ARYKHKLLINDFG [R5H]`, “normalised enrichment score” read 0.167.

Sample 2
Target: ABI1, truncated, D143A, DHFR fusion (Arabidopsis thaliana)
Technique: DHFR PCA, deep sequencing
Matrix: yeast
Notes: methotrexate growth selection, single substitutions
Together with: (+)-ABA 710 µM
Baseline: wild-type fitted maximum
Reading: higher = stronger binding
Parent: PYL1, truncated, DHFR fusion (Arabidopsis thaliana); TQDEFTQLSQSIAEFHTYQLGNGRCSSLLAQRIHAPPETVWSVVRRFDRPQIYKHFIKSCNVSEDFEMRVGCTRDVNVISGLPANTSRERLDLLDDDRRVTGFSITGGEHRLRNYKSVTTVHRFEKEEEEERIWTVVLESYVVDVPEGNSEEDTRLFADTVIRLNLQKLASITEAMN; partner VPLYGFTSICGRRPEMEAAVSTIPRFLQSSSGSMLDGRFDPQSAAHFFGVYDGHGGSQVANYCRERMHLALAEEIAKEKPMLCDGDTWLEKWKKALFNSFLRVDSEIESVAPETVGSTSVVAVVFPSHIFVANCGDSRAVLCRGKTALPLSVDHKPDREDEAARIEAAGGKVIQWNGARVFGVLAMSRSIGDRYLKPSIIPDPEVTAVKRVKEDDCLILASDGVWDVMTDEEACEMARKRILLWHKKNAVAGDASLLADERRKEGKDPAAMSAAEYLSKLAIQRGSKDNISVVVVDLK
Under “relative binding score”, `K58D` is recorded as 99.4%.
For `E139D`, “relative binding score” read 55.3%.
`E129H` — result for “relative binding score”: 108%.
`I133L`: “relative binding score” 112%.
`T154R`: “relative binding score” 1.18%.

Sample 3
Target: Sal-like protein 4, full length isoform B (SALL4, Homo sapiens, UniProt Q9UJQ4-2, residues 1-616)
Technique: universal PBM
Molecule type: double-stranded DNA, one strand shown
Matrix: in vitro
Tested at: not given
Notes: 8-mer, flanks averaged, mean of replicates
Reading: higher = stronger binding
Residues (chain): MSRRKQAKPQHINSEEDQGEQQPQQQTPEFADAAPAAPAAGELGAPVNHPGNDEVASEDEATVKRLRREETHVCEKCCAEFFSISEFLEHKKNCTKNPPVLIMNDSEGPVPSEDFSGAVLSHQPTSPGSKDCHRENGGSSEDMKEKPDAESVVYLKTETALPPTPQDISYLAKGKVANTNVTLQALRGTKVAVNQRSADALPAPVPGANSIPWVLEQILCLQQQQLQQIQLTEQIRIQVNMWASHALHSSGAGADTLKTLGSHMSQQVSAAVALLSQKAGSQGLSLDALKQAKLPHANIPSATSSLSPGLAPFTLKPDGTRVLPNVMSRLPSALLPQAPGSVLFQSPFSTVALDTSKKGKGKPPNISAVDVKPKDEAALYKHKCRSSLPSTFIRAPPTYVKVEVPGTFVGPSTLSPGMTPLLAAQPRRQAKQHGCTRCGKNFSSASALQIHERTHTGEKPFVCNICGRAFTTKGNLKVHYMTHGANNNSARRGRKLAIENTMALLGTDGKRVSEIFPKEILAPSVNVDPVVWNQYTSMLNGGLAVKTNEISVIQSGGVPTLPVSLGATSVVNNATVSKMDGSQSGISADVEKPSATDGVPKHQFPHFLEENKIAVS
`AGGTGGTA` has an E-score of 0.052.
The E-score of `CGCTAGAC` is reported as -0.155.
With `CACTGGTC` the E-score was -0.226.
The E-score of `ATTCGCTA` is reported as 0.0584.
`CCACGGAG` has an E-score of -0.181.
With `CGAGCGCG` the E-score was -0.224.
With `ACCTATAG` the E-score was 0.0838.
The E-score of `ACCGAACG` is reported as -0.169.
With `AGGTAAAT` the E-score was 0.286.

Other studies, line by line
For `PhoQ, residues 284 288 289 292 302 303 TGYLSA`, the fold induction was 7.05 (PhoP, residues 12 14 15 18 19 LWHCS (Escherichia coli, UniProt P23836); Sort-seq, measured: YFP reporter; E. coli; PhoQ-PhoP variant library, together with: 10 µM Mg2+; baseline: high Mg2+ state, higher = stronger signaling).

Some of these lines once more (sample 1):
For `ARYKHKLLINDFG [R5H]`, “normalised enrichment score” read 0.167.
Under “normalised enrichment score”, `ARYKRKCLINDFG [L7C]` is recorded as 1.08.
